Assay results collected from several papers.
A part holds a random share of what one study measured.

Set 1
Cell line: HEK-293T
Observed: pseudovirus infection
Technique: FDA-approved drug library screen
Organism: VSV pseudotyped with SARS-CoV-2 spike
Concentration: 10 µM
Time: 16 h
Reference: vehicle-treated
Endpoint: GFP-positive cells
COc1cc([C@@H]2c3cc4c(cc3[C@H](O)[C@H]3COC(=O)[C@H]23)OCO4)cc(OC)c1OC: 17.7%
COc1ncnc(NS(=O)(=O)c2ccc(N)cc2)c1OC: 68.9%
CC(C(=O)O)c1ccc(-c2ccccc2)c(F)c1 (stereo not drawn): 105%
CC(=O)[C@H]1CC[C@H]2[C@@H]3C[C@H](C)C4=CC(=O)CC[C@]4(C)[C@H]3[C@@H](O)C[C@]12C: 109%
CCc1nc(N)nc(N)c1-c1ccc(Cl)cc1: 57.4%

Set 2
Target: Cyclic AMP-responsive element-binding protein 1, full length (CREB1, Homo sapiens, UniProt P16220, residues 1-327)
Chain of UniProt P16220 (whole entry, looked up): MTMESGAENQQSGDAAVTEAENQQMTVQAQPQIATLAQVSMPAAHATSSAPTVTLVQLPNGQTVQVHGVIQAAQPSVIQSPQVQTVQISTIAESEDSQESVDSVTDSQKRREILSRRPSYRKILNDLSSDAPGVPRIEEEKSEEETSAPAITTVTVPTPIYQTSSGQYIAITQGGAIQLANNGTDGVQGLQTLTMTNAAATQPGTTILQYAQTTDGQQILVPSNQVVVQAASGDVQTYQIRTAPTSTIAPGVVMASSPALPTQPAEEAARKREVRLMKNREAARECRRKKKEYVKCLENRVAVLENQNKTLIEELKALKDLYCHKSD
Technique: protein-binding microarray
Form: hairpin DNA
Matrix: in vitro
Concentration: not given
Notes: whole hairpin DNA, median over replicate spots
Reference: not given
Reading: higher = stronger binding
Endpoint: median fluorescence
GAGGCCGACGACGTCGTGCCTCCTGGCACGACGTCGTCGGCCTCACACTC (5mC at 9 12 15 29 32 35): 2800 a.u.
GAGGCCGACGACGTCGTGCCTCCTGGCACGACGTCGTCGGCCTCACACTC (5mC at 9 15 29): 7080 a.u.
GAGGCCGACGACGTCGTGCCTCCTGGCACGACGTCGTCGGCCTCACACTC (5mC at 9 15 29 32 35): 3150 a.u.
GAGGCCGACGACGTCGTGCCTCCTGGCACGACGTCGTCGGCCTCACACTC (5mC at 9 15 29 35): 4640 a.u.

Set 3
Target: Replicase polyprotein 1ab, polymerase (rep, Severe acute respiratory syndrome coronavirus 2, UniProt P0DTD1)
Observed: enzyme activity
Action: inhibitor
Concentration: 20 µM
Endpoint: inhibition
CC(C)C[C@H](NC(=O)[C@H](CCc1ccccc1)NC(=O)CN1CCOCC1)C(=O)N[C@@H](Cc1ccccc1)C(=O)N[C@@H](CC(C)C)C(=O)[C@@]1(C)CO1: -0.18%
NC(=O)c1[nH]cnc1O: -3.89%
O=C/C=C/c1ccccc1: -2.07%
COc1ccc(CCNCc2ccc(OCc3ccc(Cl)nc3)c(OC)c2)cc1OC: -0.15%
COc1nccc(-c2c(-c3ccc(F)cc3)ncn2[C@H]2CC[C@H](O)CC2)n1: 3.16%
CCc1nc2ccc(Cl)cn2c1C(=O)NCc1ccc(N2CCC(c3ccc(OC(F)(F)F)cc3)CC2)cc1: -2.5%
COc1cc(C(=O)N2CCOCC2)cc(OC)c1OC: -0.48%
OC(CN1CCN(c2cccc(Cl)c2)CC1)C(c1ccccc1)c1ccccc1 (stereo not drawn): -6.03%
CNC[C@H](O)c1ccc(O)c(O)c1: 20.3%
CCCc1cc(C)[nH]c(=O)c1CNC(=O)c1cc(-c2ccc(N3CCN(C(C)C)CC3)nc2)cc2c1cnn2C(C)C: -2.9%
COc1ccc2c(c1OC)C(=O)O[C@@H]2[C@H]1c2c(cc3c(c2OC)OCO3)CCN1C: 20.4%
O=c1[nH]c(=O)n([C@H]2C[C@H](O)[C@@H](CO)O2)cc1C(F)(F)F: -4.08%
Cc1ccc([C@@H]2O[C@H](CO)[C@@H](O)[C@H](O)[C@H]2O)cc1Cc1ccc(-c2ccc(F)cc2)s1: 2.44%
COc1ccc(-c2nc(C(=O)N3CCN(C)CC3)sc2-c2ccc(OC)cc2)cc1: 4.74%
COc1ccc(-c2sc(NC(=O)C(C)(C)C)nc2C)cc1S(=O)(=O)Nc1ccc(O)cc1: 0.17%
c1cnc(NCc2ccc(CNc3ncccn3)cc2)nc1: -1.42%
Cc1ccc(-c2ccc(F)cc2COc2ccc(CCC(=O)O)cc2)cc1: 24.4%
CC(C)C(=O)OC[C@H]1O[C@@H](n2ccc(N)nc2=O)[C@](C)(F)[C@@H]1OC(=O)C(C)C: 0.3%
c1ccc(C[C@H](c2ccccc2)N2CCCCC2)cc1 (racemic): -22.9%
CC(=O)OCC1=C(C(=O)O)N2C(=O)[C@@H](NC(=O)CCCC(N)C(=O)O)C2SC1 (stereo partly drawn): 3.78%
CCCCc1oc2ccc(NS(C)(=O)=O)cc2c1C(=O)c1ccc(OCCCN(CCCC)CCCC)cc1: 7.38%

Set 4
Target: Protein C-ets-1 (ETS1, Homo sapiens, UniProt P14921, residues 1-441, Y397A, full length assumed)
Chain of UniProt P14921 (whole entry, unmodified, looked up): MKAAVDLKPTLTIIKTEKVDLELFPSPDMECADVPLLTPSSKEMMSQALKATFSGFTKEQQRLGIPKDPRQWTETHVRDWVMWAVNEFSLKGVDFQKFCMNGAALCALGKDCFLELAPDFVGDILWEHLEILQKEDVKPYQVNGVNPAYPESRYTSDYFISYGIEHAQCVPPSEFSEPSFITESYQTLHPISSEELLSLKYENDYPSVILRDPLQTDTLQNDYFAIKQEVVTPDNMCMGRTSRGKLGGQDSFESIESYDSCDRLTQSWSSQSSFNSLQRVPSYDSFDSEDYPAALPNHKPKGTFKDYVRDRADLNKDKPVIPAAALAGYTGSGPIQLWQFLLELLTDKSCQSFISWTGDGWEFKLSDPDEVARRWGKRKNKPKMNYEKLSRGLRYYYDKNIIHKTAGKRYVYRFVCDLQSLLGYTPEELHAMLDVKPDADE
Technique: protein-binding microarray
Form: double-stranded DNA, one strand shown
Matrix: in vitro
Concentration: not given
Notes: k-mer, scored over probes, only values ≥0.25
Reading: higher = stronger binding
Endpoint: E-score
ACTATAGT: 0.297
CACACGAC: 0.266
CGTCCGGA: 0.268
CAACAAAA: 0.271
AGTTTGCC: 0.379
CTTGTAAC: 0.279
AACAACAA: 0.307
CTCCCCGC: 0.273

Set 5
Target: Replicase polyprotein 1ab, main protease (rep, Severe acute respiratory syndrome coronavirus 2, UniProt P0DTD1)
Observed: enzyme activity
Action: inhibitor
Concentration: 20 µM
Notes: hit confirmation, with DTT
Endpoint: inhibition
CCCCCCCCCCCCCCCCCC[S+](CCC)c1ccccc1C(=O)OCC (stereo not drawn): 89.9%
Cc1ccc(S(=O)(=O)c2ccc([N+](=O)[O-])o2)cc1: 5.8%
CC(C)Nc1cccnc1N1CCN(C(=O)c2cc3cc(NS(C)(=O)=O)ccc3[nH]2)CC1.CS(=O)(=O)O: 67.5%
COCCCOc1ccnc(C[S+]([O-])c2nc3ccccc3[nH]2)c1C (stereo not drawn): -10.5%

A few entries again (set 5):
CCCCCCCCCCCCCCCCCC[S+](CCC)c1ccccc1C(=O)OCC (stereo not drawn): 89.9%
Cc1ccc(S(=O)(=O)c2ccc([N+](=O)[O-])o2)cc1: 5.8%
CC(C)Nc1cccnc1N1CCN(C(=O)c2cc3cc(NS(C)(=O)=O)ccc3[nH]2)CC1.CS(=O)(=O)O: 67.5%
COCCCOc1ccnc(C[S+]([O-])c2nc3ccccc3[nH]2)c1C (stereo not drawn): -10.5%
